Published values collected from several papers.
Every numbered part comes from another study and shows a few of its results, in no order.

Block 1
Target: RING finger protein unkempt homolog, zinc fingers 1-6, GST-SBP tag (UNK, Homo sapiens, UniProt Q9C0B0, residues 30-357)
Chain of UniProt Q9C0B0 (30-357, looked up): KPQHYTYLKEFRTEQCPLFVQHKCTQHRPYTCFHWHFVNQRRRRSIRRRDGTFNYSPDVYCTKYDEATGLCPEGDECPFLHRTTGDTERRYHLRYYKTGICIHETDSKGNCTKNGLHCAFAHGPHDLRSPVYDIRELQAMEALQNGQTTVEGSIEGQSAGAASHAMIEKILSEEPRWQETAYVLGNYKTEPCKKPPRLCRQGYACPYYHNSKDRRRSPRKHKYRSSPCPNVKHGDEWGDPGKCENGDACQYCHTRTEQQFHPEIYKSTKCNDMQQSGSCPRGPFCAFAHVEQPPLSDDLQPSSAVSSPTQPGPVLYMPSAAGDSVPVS
Method: RNA Bind-n-Seq
Molecule type: RNA
Sample: in vitro
Tested at: not given
Setting: RNA with constant flanks, human and mouse sites, ends assumed
Reference: input RNA pool
Direction: higher = stronger binding
Quantity: bound/input enrichment
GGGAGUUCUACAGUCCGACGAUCGGUUGUUUGUUUGUUUGUUUGUUUUGCCGCCCUGGACACAUGUUUGCCUCCUCCAAGAAUUUCUGCGGGGAUUUGUAUCCCAUGCCUUCGUCUUCUCCUCCCCGUCCAACUCCCUGGAGACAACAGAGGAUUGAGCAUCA: 0.809 ratio
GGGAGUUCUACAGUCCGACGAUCAGACUGUCUGUUGUUGCCUUCUCAGAGUUUUGCAGCUCAGGGUUGGGGCCUAGUUACAGUUUGGAUCCUUAGUCCAAGAAUUUUGAGAACGUGAGUAAAACCUUGGCAGGAGCUAAAAAACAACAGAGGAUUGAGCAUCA: 0.289 ratio
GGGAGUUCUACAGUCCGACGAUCAAUGAAGUGGUUCAAUCUGGAAGAAAGACUAAGCCCAUUAUUCCAGAGAUGUGUUUUAUUUAUAGUGAAGAAAAUGUAGACUAUUCCCCCCCAAAUGCCUUCCUUGAAGAAGAUGGAACACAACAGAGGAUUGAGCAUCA: 0.471 ratio
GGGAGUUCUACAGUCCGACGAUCUCAAAAAUGUAAAGCUGAAAAUAAAACCAGGGUUUCUAUUUAUCUGUUUUUUUUUUUAAUGUUGCACUUGUAGUUUCAUUACAAAAGAUCAGAUCAUGAAAGGCAGUAACUCUCCAGGACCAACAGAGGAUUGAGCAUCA: 0.386 ratio
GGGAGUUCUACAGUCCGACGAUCCUCGGCAAAAUCUAUGCUGGGACGCCUCGGUUUUUCCCUCUGGAUUUUAUCGUGCAGUUCUUGGAGCAGCAAGUUUGUACCUUAAACUGGGAUGUGGGGUUUGUGAUACAGACCAUGAAUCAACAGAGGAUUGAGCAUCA: 0.135 ratio
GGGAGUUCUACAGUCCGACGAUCGCUCCAAACCAGUUCUUCUGCAGAGUGGUGAUGUUAGCUUCCCCAGCUCCUCUCCAAGUCUAGCUUUUUCUGUCCUUCUGGCUCCAAGGUGCUCUGUGUCUGUGUGUGUGUGUCUGUCUGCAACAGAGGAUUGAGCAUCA: 1.48 ratio
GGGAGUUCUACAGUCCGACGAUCGUUACAGGAAGUCCCUUGCCAUCCUAAAAGCCACCCCACUUCUCUCUAAGGAGAAUGGCCCAGUCCUCUCCCAAGUCCACACAGGGGAGGUGAUAGCAUUGCUUUCGUGUAAAUUAUGUACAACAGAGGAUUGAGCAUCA: 0.271 ratio
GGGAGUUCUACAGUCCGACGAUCGUCAAAAGUACCCUGAUGGAAAUUAUUUUUUUUAGUCUGCGUUUGACAGUUUUUCAUUUUAACAAGUACUACACAGGUUCUGUUUUGGUGUAGGUGUGAUGGCGCUUUUACUACCAGGUUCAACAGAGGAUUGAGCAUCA: 2.02 ratio
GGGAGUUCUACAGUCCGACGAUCGACAGAACAGAGAUUUGUGUGCUCAUCUUAAGAGCCAGAGCCAUAUAAGCAUCUUGGGAAAGCAAGUUUGAACCAGCUGCUGGUGUAAUGUACAGUUAUAUUUGUCUAUAAAUGGAGCUGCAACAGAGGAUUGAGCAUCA: 0.373 ratio
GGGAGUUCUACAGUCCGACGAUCAUUUUUGCAAGUUUGGCUUUAUAUGAUGUCAAGGAAAAGAAAAAGAUUUCAGAAAACUUUUAUUUUGACCUUAAUUCUGAGCAGAUGAAAGGGUUGUUACGUCCACAUGUACCACCUGCUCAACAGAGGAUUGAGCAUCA: 0.291 ratio
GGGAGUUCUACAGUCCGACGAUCGACCUGUCUUCUCUUGUAUCAGCCAGGGACAGAGAAUCACAAGGACAUCUCCAUUGAGAAGCAGAAGGGCCUGGGAAGCCUCCAUUGGGGAUGUGUCUAUGAGGGAGUGUCAGCCACUCCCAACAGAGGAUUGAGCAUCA: 0.395 ratio

Block 2
Target: Transcription factor SOX-2, HMG box (Sox2, Mus musculus, UniProt P48432, residues 41-119)
Chain of UniProt P48432 (41-119, looked up): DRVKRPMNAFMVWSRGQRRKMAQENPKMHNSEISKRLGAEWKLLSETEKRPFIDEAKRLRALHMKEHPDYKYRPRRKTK
Method: Spec-seq
Molecule type: double-stranded DNA, one strand shown
Sample: in vitro
Tested at: not given
Setting: whole probe, mean of replicates
Reference: not given
Direction: lower = stronger binding
Quantity: relative binding energy
Constant ends, left off below: GAGTCGTCTCGTCAGCAC … CCGTAGAGCACTCAGGTC
CATTGCG: -0.0972 ln ratio
AAAGGTT: -1.67 ln ratio
AATAGTT: -2.02 ln ratio
CATCACC: 1.05 ln ratio
CATTAAC: -0.399 ln ratio
CATAAAG: -1.15 ln ratio
CATTAAA: -0.539 ln ratio
GGTAGTT: 0.984 ln ratio
TAGCGTT: 0.892 ln ratio
CATCATT: 0.00402 ln ratio
CATCATA: 0.189 ln ratio

Block 3
Target: Prothrombin, mature alpha-thrombin (F2, Homo sapiens, UniProt P00734)
Method: aptamer microarray, sandwich
Molecule type: DNA with 2'F-ANA
Sample: in vitro
Tested at: 200 nM
Setting: whole 15-mer aptamer, many near background
With: Cy3 exosite-II aptamer, 400 nM
Direction: higher = stronger binding
Quantity: mean fluorescence intensity
Strand: GGTTGGTGTGGTTGG
2'F-ANA at 3 10 11 12 13 14 15: 329 a.u.
2'F-ANA at 5 6 11 13 14 15: 44.1 a.u.
2'F-ANA at 1 2 3 5 6 7 8 10 13 15: 47.9 a.u.
2'F-ANA at 1 2 3 4 6 7 8 9 11 14: 74.1 a.u.
2'F-ANA at 2 4 5 6 7 8 9 10 11 12 13 14: 48.7 a.u.
2'F-ANA at 2 3 4 5 6 7 8 14: 52.2 a.u.
2'F-ANA at 1 2 3 4 5 6 7 8 9 10 12 13 15: 51.7 a.u.
2'F-ANA at 1 2 4 5 8 9 10 11 14: 48.1 a.u.
2'F-ANA at 2 6 9 10 11 13 14 15: 75.3 a.u.
2'F-ANA at 2 7 8 9 10 11 12 13 15: 144 a.u.
2'F-ANA at 1 2 3 6 9 10 13 15: 69.8 a.u.
2'F-ANA at 2 3 6 7 9 11 14: 310 a.u.
2'F-ANA at 2 5 7 8 10 11 13: 49.1 a.u.
2'F-ANA at 1 2 4 5 10 11 14 15: 51 a.u.
2'F-ANA at 2 3 4 5 8 10 12 15: 165 a.u.
2'F-ANA at 2 4 5 6 9 10 12: 52.5 a.u.
2'F-ANA at 1 2 3 6 8 9 11 12 14: 78.1 a.u.
2'F-ANA at 2 3 4 6 10 12 14: 165 a.u.
2'F-ANA at 1 5 8 9 10 11 14 15: 316 a.u.
2'F-ANA at 4 8 9 10 11 12 13 14: 61.4 a.u.
2'F-ANA at 1 3 4 5 6 7 8 9 10 12 13 14: 48.3 a.u.
2'F-ANA at 3 4 5 7 8 9 10 11 14: 53.2 a.u.
2'F-ANA at 1 2 4 5 7 9 13 14: 45.3 a.u.
2'F-ANA at 1 2 3 4 6 8 9 13 15: 106 a.u.
2'F-ANA at 2 3 5 8 12 14: 62.8 a.u.

Block 4
Target: RNA binding protein fox-1 homolog 2, RRM domain, GST-SBP tag (RBFOX2, Homo sapiens, UniProt O43251-10, residues 100-194)
Method: RNA Bind-n-Seq
Molecule type: RNA
Sample: in vitro
Tested at: 365 nM
Setting: natural RNA segment, single round, ends assumed
Reference: no-protein control
Direction: higher = stronger binding
Quantity: RBNS enrichment (R)
Target sequence (chain): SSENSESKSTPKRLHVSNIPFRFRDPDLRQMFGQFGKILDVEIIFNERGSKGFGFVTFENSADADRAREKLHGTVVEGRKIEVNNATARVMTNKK
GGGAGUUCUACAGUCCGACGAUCUGGGCUCGGGGGUUGGGGGGUGCCGGGGCGAUGCUUCCACCCUGGACUGAGUGUUCGGGGCAGCCUGCUCGGCUGUAUGUUUCUCGCACGCUCACCCGCUUCAGUGCGGCUGGAAUUCUCGGGUGCCAA: 1.55
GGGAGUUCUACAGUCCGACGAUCAGAUCUACAUACAUGAAGAGCUGAAGAGGUCCCUUCGGUCUCCGCCAGGGAACCUGGUGGGAGGGAGAAAGAUGAGGGGAGGGAGUUUACCUUUUGAUUAGCUGUUGAGGUGGAAUUCUCGGGUGCCAA: 0.732
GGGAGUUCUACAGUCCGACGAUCGGUGGGGUUAAGACCAUUCUUCAGAUGUGGAAAUGAAGGCUCUGGGAGACCACAGGACAUGCCCAAGGCAAAGAGUUGGUAGUCCCUGGAUUUGGGAAUCAAACUCAAGCUGGAAUUCUCGGGUGCCAA: 0.685
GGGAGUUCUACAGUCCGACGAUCUUAACCUGUUCCAUCCCAUGGAACCACAGAGGAGGAAGACCUUGAAUUAUUCUGUCACCCAGCCUGGCGUAGGACUCUUUUGGUCCUGCCUGCUUCCUAUCUCUGGAGGAUGGAAUUCUCGGGUGCCAA: 0.255
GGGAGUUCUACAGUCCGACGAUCUCACCAUCGGUUCCCUGGCCUCCCUCCGUGGUCCAGCACUGGCCCCAGUAUGCUGUGUAUGCAGCAGGGACUCUUUUCCCCACAUGCCAGGAUGACUUGGAUCUGGGAAGUGGAAUUCUCGGGUGCCAA: 0.318
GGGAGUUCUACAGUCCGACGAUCUAAGUAGCAAUGGUUAUUUUUAUUGGUAGUAACUGAACAGUGUUUUGCAAUUUGUGAAACAGUGUAUUGUGUUUUGUAAAAUGAUGUCAUGAAAUGGUGGGUCCUUGGAAUGGAAUUCUCGGGUGCCAA: 0.728
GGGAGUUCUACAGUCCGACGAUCGAUGAGAAUUUUUCUCCUAUAUACUAAAUCCUCUUAAAGACUCAACUCUUUGUAGUUUUGUCAAAGACAAAUACUCUGUAAAGUCCCCCACCUACCCCAGAUCUACAGCUUGGAAUUCUCGGGUGCCAA: 0.525
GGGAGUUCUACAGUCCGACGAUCGCUGCUGUCAGCCCCUCCUGUAGGAGCUGGCCCUGCCCAGGCUCCUGACUUCCCUCAGGAAGUCUUUCUGUCUUUCUCCAUCAGUCUGAAAGCCUUAGUUCCCACAGAGGUGGAAUUCUCGGGUGCCAA: 0.286
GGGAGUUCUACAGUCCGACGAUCCAUCUCAGCCAGCAGAUCUGCUCCCUUCUGGGACCCAGGCUUCAGUGUCACACGGUCCUUGGCUAUGUAUUGGGCGUUGGAGGCUUUGAAAGGCGAGCAGAAGCAGCAUGUGGAAUUCUCGGGUGCCAA: 3.65
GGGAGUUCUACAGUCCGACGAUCAGGAAGAAGCAAGCAAAACUGAGCUUGCCUUCUUCAAGAGUGACCCUUUCGGGCUCCUUUUUUAGGUGGUGGGAUUGAGUCCCUACUAGCUCGGAAGGCCUUGAGAGGGCUGGAAUUCUCGGGUGCCAA: 0.336
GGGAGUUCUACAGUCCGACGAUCUUCCUGGGCCAGCACUAGCCUUGAAUUUGCUCAUCCGCUUGAAACCUACUGGGGGAUGGGGCCCGUGCCUUUCUGACCUACCCUGUCCUAUAUGGUCCUCGUGUUGGCUUUGGAAUUCUCGGGUGCCAA: 0.488
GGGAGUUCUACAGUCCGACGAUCAAGAUAAUUCAACCAUCUAAUCAAAAUGGAUCUGGAUUACUAUGUAAAUUCACAGCAGUAAGAUAAUAUAAAUUUUGUUGAAUGUAUUAACAUCAUAUGGUCUGAAAAUGUGGAAUUCUCGGGUGCCAA: 0.333

For quick reference, copied from above (block 2):
TAGCGTT: 0.892 ln ratio
CATTGCG: -0.0972 ln ratio
CATCATA: 0.189 ln ratio
AAAGGTT: -1.67 ln ratio
